Measured values pooled from the literature.
Compare with care: the assays were run in different laboratories. “And” joins repeats or separate records; there may be more than shown. ± marks the error that the study gave. In brackets after ≈: the same amount, converted by molar mass.
GBA2: Beta-glucosidase (GBA2, Homo sapiens, UniProt Q9HCG7)
Sequence of UniProt Q9HCG7 (whole entry, looked up): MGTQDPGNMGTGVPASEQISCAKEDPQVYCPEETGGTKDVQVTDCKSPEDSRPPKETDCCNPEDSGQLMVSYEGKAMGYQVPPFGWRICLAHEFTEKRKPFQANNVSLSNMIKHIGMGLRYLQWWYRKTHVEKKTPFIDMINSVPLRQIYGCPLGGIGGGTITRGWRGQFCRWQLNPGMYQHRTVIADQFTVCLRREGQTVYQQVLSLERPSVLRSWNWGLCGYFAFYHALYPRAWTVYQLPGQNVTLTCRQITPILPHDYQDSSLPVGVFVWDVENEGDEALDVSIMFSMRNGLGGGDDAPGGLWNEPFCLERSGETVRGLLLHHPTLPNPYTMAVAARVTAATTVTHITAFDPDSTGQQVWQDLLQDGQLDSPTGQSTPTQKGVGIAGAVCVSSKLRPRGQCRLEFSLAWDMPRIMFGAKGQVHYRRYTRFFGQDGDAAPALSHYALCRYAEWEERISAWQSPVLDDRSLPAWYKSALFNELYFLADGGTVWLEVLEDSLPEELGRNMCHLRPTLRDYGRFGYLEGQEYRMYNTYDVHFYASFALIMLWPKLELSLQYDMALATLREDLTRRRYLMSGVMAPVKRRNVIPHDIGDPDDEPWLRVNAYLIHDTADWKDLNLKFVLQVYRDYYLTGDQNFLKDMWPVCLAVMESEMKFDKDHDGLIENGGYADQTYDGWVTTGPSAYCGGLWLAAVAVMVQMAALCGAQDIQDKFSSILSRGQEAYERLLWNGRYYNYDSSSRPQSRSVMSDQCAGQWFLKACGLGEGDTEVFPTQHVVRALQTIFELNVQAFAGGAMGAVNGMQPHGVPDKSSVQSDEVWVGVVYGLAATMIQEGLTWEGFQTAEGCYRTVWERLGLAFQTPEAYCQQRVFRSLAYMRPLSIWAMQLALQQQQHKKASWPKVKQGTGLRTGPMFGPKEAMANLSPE

`CCCCCCCOc1ccc(CC[C@](N)(CO)COP(=O)(O)O)cc1C(F)(F)F`: “urinary excretion (0-24 h)” 0% (healthy men, urine; oral, 0.125 mg once daily, day 1, fed state; relative to: dose).
`CC[C@H](C)[C@@H]1NC(=O)[C@H](Cc2ccc(O)cc2)NC(=O)CCCSC[C@@H](C(=O)N(CC(=O)N[C@@H](CC(C)C)C(=O)NCC(N)=O)Cc2ccc(F)cc2)NC(=O)[C@H](CC(N)=O)NC(=O)[C@H](CCC(N)=O)NC1=O` gave an AUC(0-t) of 0.078 ng·h/mL (healthy human, plasma; intranasal, 200 µg every 3 h, after second dose).
`C=CC(=O)Nc1cc(Nc2nccc(-c3c[nH]c4ccccc34)n2)c(OC)cc1N(C)CCN(C)C` has a recovery of 88.7% (storage stability; human dried blood spot; 10 d, -80 °C, MQC level).
`C=CC(=O)N1CCCC(n2c(=O)c3ncccc3n(Cc3ccc(Oc4ccccc4)cc3)c2=O)C1` (centres unmarked) has a hepatocyte CLint of 14.2 µL/min/10⁶ cells (metabolic stability; male beagle dog, hepatocytes; 1 µM).
The selectivity ratio of `OC[C@H]1N[C@H](CCCCCCOCC23CC4CC(CC(C4)C2)C3)[C@H](O)[C@@H](O)[C@@H]1O` is reported as 2 (GBA2; inhibitor, 4MU-β-D-glucopyranoside; HEK293T homogenates overexpressing GBA2; relative to: GBA1 IC50 over GBA2 IC50).
For `O=C(NCCCOCCOCCOCCCNC(=O)[C@H]1CCCC[C@H]1C(=O)O)[C@H]1CCCC[C@H]1C(=O)O`, the surface tension was roughly 62 mN/m (pendant drop; 1 % w/w).
Under “molar extinction coefficient”, `CCCCN1C(=O)c2cccc3c(NCCCN4CCOCC4)ccc(c23)C1=O` is recorded as 5160 M⁻¹ cm⁻¹ (Methanol).
`NCCCC[C@H](NC(=O)[C@@H](N)Cc1c[nH]c2ccccc12)C(=O)N[C@@H](Cc1c[nH]c2ccccc12)C(N)=O`: “mean first passage time” roughly 22 min (membrane permeation, tryptophan fluorescence; DOPC large unilamellar vesicles; pH 7.2).
Under “Tmax at steady state”, `COCC1CN(C2CCN(c3cc(OC)c(Nc4ncc(Br)c(Nc5ccc6c(c5P(C)(C)=O)OCCO6)n4)cc3C)CC2)C1` is recorded as 2.98 h (EGFR-mutant NSCLC patients, plasma; oral, 150 mg multiple doses, median).
`C=C(NC(=O)c1csc(-c2nc3c(cc2O)-c2nc(cs2)C(=O)NC(C(C)O)C(=O)NC(=C(C)OC)c2nc(cs2)C(=O)NC2c4nc(cs4)C(=O)NC(COC(=O)c4c5c6c(cccc6n4O)COC(=O)C(OC4CC(C)(O)C(N(C)C)C(C)O4)C2OC5)c2nc-3cs2)n1)C(N)=O` (centres unmarked) gave a Cmax of 3560 ± 627 ng/mL (Sprague-Dawley rat, both sexes, plasma; intravenous infusion, 6 mg/kg, multiple doses, day 7).
`Cc1[nH]c(=O)c(CNC(=O)c2cc(Cl)c3c(c2C)O[C@@](C)([C@H]2CC[C@H](N(C)C)CC2)O3)c(C)c1O` has a urinary excretion of 1.5% and 0.2% and 0.8% and 0.6% (radiochromatography; human, urine; oral, 200 mg; relative to: dose).
Under “molar extinction coefficient”, `CCCCN1C(=O)c2cccc3c(NCCN4CCOCC4)ccc(c23)C1=O` is recorded as 7520 M⁻¹ cm⁻¹ (Dioxane).
`CCC1=[N+]2N=C(c3ccccc3)C(=O)O[B-]2(c2ccccc2)Oc2cc(OC)ccc21` (centres unmarked) — result for “molar absorption coefficient”: 7000 M⁻¹ cm⁻¹ (toluene).
With `Cc1nc(N)nc2c1C(=O)N[C@@H](c1ccc(F)cc1-c1cccc(O[11CH3])n1)C2` the SUV was 2.8 ± 0.1 (ex vivo biodistribution; mice, MDA-MB-231 subcutaneous xenograft, pancreas; 60 min post-injection, baseline, vehicle pre-treatment).
`CCCC[C@H](OC(C)=O)c1ccccc1C(=O)O` has a clearance of 21.7 ± 2.02 mL/min/kg (beagle dogs, both sexes, whole blood; intravenous, 1.5 mg/kg single dose).
Under “absorbed radiation dose”, `O=C(O)CCCOc1ccc([18F])cc1-c1cc(-c2ccccc2C(F)(F)F)n(-c2ccccc2)n1` is recorded as 10.9 µGy/MBq (OLINDA/EXM extrapolation from mouse; human adult, osteogenic cells).
For `CC[C@H](C)[C@H](NC(=O)[C@H](Cc1ccc(O)cc1)NC(=O)[C@@H](NC(=O)[C@H](CCCNC(=N)N)NC(=O)[C@@H](N)CC(=O)O)C(C)C)C(=O)N[C@@H](Cc1c[nH]cn1)C(=O)N1CCC[C@H]1C(=O)O`, the Cmax was 257 ng/mL (LC-MS/MS; Sprague-Dawley rats, both sexes, plasma; subcutaneous, 10 mg/kg/day, day 27).
`C[C@@]1(c2nc(-c3ccc(F)c4cn[nH]c34)no2)CCCN(C(=O)c2ccc(F)nc2)C1`: “conditioned place preference score” 60.7 and 33.1 and -173 and 2.48 and 23.7 (mouse; intraperitoneal, 20 mg/kg; direction not given).
For `COCCN(C)CC(=O)NC(Cc1ccc(-c2ccccc2)cc1)B(O)O` (centres unmarked), the oral bioavailability was 113% (male Sprague-Dawley rats; oral, 1 mg/kg).
`O=[N+]([O-])c1cccc(/C=N/Nc2nnc(N/N=C/c3cccc([N+](=O)[O-])c3)c3ccccc23)c1` has a haemolysis of 19.4% (haemolysis; human; 10 mM, 45 min).
`O=C(NS(=O)(=O)c1cccs1)c1cc2ccccc2n1Cc1ccc(Br)c2ccccc12` gave a body weight of 26 g and 25.2 g and 24.4 g (KM mouse, chronic hyperuricaemia model; dose not given, day 0).
`O=C([O-])CN1CCN(CC(=O)[O-])CCN(CC(=O)NCC2CCC(C(=O)NC(Cc3ccc4ccccc4c3)C(=O)NCCCCC(NC(=O)NC(CCC(=O)O)C(=O)O)C(=O)O)CC2)CCN(CC(=O)[O-])CC1.[68Ga+3]` (centres unmarked) — result for “mean tumour uptake”: 4.83 ± 0.46 %ID/g (micro-PET/CT; mouse 22Rv1 xenograft, tumour; 4 h post-injection).
`CCCCN1C(=O)c2cccc3c(NCCCCCCCCN4CCOCC4)ccc(c23)C1=O` — result for “molar extinction coefficient”: 11800 M⁻¹ cm⁻¹ (acetonitrile).
`C[C@@H](Nc1c(-c2c(F)cc(C#N)cc2F)c(Cl)nc2ncnn12)C(C)(C)C`: organ weight “no effect” (item: brain, heart, liver, kidney, spleen; wild-type mice; intraperitoneal, 10 to 20 mg/kg twice weekly, 3 weeks).
`O=C(Nc1cnccc1-c1ccc([18F])cc1)c1ccnc(NC(=O)C2CC2)c1` has an SUV of 0.72 (ex vivo gamma counting; GSK-3β transgenic mice, late-stage, bone; intravenous, 120 min, mean, P-gp inhibitor pretreatment, added: tariquidar 15 mg/kg iv).
`CN([O-])C(=O)CN1CCNCCN(CC(=O)N(C)[O-])CC1.[89Zr+4]` gave a tracer uptake of 1.28 %ID/g (mouse, kidney; intravenous, 4 h).
`CCC(C(=O)Nc1ccc(C(N)=O)c(F)c1)n1cc(OC)c(-c2cc(Cl)ccc2-n2cc(C(F)(F)F)nn2)cc1=O` (centres unmarked): “mild adverse events” 28.6% (healthy male humans; 50 mg, maximum intensity, added: omeprazole).
`CCCCN1C(=O)c2cccc3c(NCCCCCCN4CCOCC4)ccc(c23)C1=O` — result for “molar extinction coefficient”: 13700 M⁻¹ cm⁻¹ (methanol).
`CC1(F)CN(C(=O)Cn2c(=O)c(C(=O)NCc3ccc(Cl)cc3)cc3nc(N4CCN(CCN)C4=O)cnc32)C1` has a thermodynamic solubility of 6.64 µM (≈ 3.79 µg/mL) (aqueous buffer; 24 h, pH 7.4, 37 °C).
For `C=CC(=O)Nc1cc(Nc2nccc(-c3cn(C)c4ccccc34)n2)c(OC)cc1N(C)CCNC`, the recovery was 101% (storage stability; human plasma; 2 h, -80 °C, MQC level).
`CCC(CC)n1c(Cc2cccs2)nc2cc(C(=O)NC(CC(=O)O)CC(C)C)ccc21` (centres unmarked): cardiac function “no effect” (echocardiography, item: LVEF, FS; mouse; dose not given, 2 wk).
`O=C1CCC(N2Cc3cc(C(=O)O)c(F)cc3C2=O)C(=O)N1` (centres unmarked) has a plasma concentration of 0.35 ± 0.1 ng/mL (cynomolgus monkey, male; oral, 0.3 mg/kg parent drug, 12 h).
`CCCCN1C(=O)c2cccc3c(NCCCCCN4CCOCC4)ccc(c23)C1=O` — result for “molar extinction coefficient”: 11600 M⁻¹ cm⁻¹ (water; pH 6.0).
For `O=C1NC2(CC2)COc2ncc(F)cc2[C@H]2COCCN2c2ccn3ncc1c3n2`, the PCE/(PCE+NCE) ratio was 0.544 ± 0.05 (bone marrow micronucleus test; NIH mice, female; oral, 60 mg/kg/day, 3 days).
With `CC(=O)N([O-])CCCCCNC(=O)CCC(=O)N([O-])CCCCCNC(=O)CCC(=O)N([O-])CCCCCN.[89Zr+4]` the intact complex was 97.2 ± 1.4% (radio-TLC; aqueous buffer; 1 d, pH 7.2, 37 °C, 89Zr-labelled complex, added: NiCl2 10-fold excess).
`O=C(Nc1cnccc1-c1ccc([18F])nc1)c1ccnc(NC(=O)C2CC2)c1` has a mean SUV of 7.24 (ex vivo gamma counting; FVB/NJ mice, both sexes, cecum; intravenous, 120 min).
The tracer uptake of `[123I]c1ccc2nc(-c3ccc(-n4ccnn4)nc3)cn2c1` is reported as 0.045 %ID/g (male Wistar rat, muscle; intravenous, 4 MBq, 1 h).
With `C/C(N)=N/C(=N\S(=O)(=O)c1ccc(C(F)(F)F)cc1)N1C[C@H](c2ccccc2)C(c2ccc(Cl)cc2)=N1` the AUC(0-inf) was 2680 ng·h/mL (Sprague-Dawley rat, male, plasma; oral, 3 mg/kg).
Under blood concentration, `CCC1C=C(C)C(O)C(C)CC(OC)C2OC(O)(C(=O)C(=O)N3CCCCC3C(=O)OC(C(C)=CC3CCC(O)C(OC)C3)C(C)C(O)CC1=O)C(C)CC2OC` (centres unmarked) is recorded as “not detected” (C57BL/6 mouse, blood; topical single dose, dose not given, 1 h).
`CCCCCN1C[C@@H](O)[C@H](O)[C@H](O)[C@@H]1CO` has a selectivity ratio of 4000 (GBA2; inhibitor, 4MU-β-D-glucopyranoside; HEK293T homogenates overexpressing GBA2; relative to: GBA1 IC50 over GBA2 IC50).
With `Oc1ccc([C@@H]2Oc3ccc(O)cc3[C@@H]3CCC[C@@H]32)cc1` the AUC(all) was 1.2 µM·h (mouse, plasma; oral, 10 mg/kg).
For `Cc1cc(-c2ccc(C(=O)[C@@H]3CCCC[C@H]3C(=O)Nc3cnn4c3C(=O)NCC4)cc2)[nH]n1`, “cumulative recovery of radioactivity” read 5.88% (human, urine; oral, 200 mg, 0-144 h; relative to: dose).
With `CC(C)[C@H](NC(=O)[C@H](Cc1c[nH]c2ccccc12)NC(=O)[C@H](CCCNC(=N)N)NC(=O)[C@H](CCCNC(=N)N)NC(=O)[C@@H](NC(=O)[C@@H](NC(=O)[C@H](CCCNC(=N)N)NC(=O)[C@@H](NC(=O)[C@@H](NC(=O)[C@H](CCCNC(=N)N)NC(=O)[C@H](CCCNC(=N)N)NC(=O)[C@@H](NC(=O)[C@H](Cc1c[nH]c2ccccc12)NC(=O)[C@H](CCCNC(=N)N)NC(=O)[C@H](CCCNC(=N)N)NC(=O)[C@@H](NC(=O)[C@H](CCCNC(=N)N)NC(=O)[C@H](CCCNC(=N)N)NC(=O)[C@@H](NC(=O)[C@H](Cc1c[nH]c2ccccc12)NC(=O)[C@H](CCCNC(=N)N)NC(=O)[C@@H](N)CCCNC(=N)N)C(C)C)C(C)C)C(C)C)C(C)C)C(C)C)C(C)C)C(C)C)C(=O)N[C@@H](CCCNC(=N)N)C(=O)N[C@@H](CCCNC(=N)N)C(=O)O` the protein was 30 mg/dL (dipstick; CD1 mouse, urine; intravenous, 15 mg/kg, 16 h, [14C]-labelled compound).
`CC(C)(C)C(=O)Nc1ccc2[nH]c(CN3CCC(N(CCCN4CCOCC4)CC4OC(n5cnc6c(N)ncnc65)C(O)C4O)CC3)nc2c1` (centres unmarked) has a concentration of 6 ng/mL (male Sprague-Dawley rat, plasma; intravenous, 20 mg/kg, 4 h).
